Measurements gathered from unrelated publications.
Lines come from different studies, so protocols differ. ± gives the spread as reported.
SCTR: Secretin receptor (SCTR, Homo sapiens, UniProt P47872)
T1: ssRNA FMR1 5' UTR CGG repeat (Homo sapiens); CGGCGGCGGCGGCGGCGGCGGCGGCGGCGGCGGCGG

SMILES	target	test	system	setting	how to read	measurement	value
O=P(O)(O)O[C@@H]1[C@@H](O)[C@H](O)[C@H](O)[C@H](O)[C@H]1OP(=O)(O)O	Inositol 1,4,5-trisphosphate-gated calcium channel ITPR1 (Itpr1, Rattus norvegicus, UniProt P29994, del318-332/R568Q)	Ca2+ release	DT40, permeabilized	unit not given	baseline: R568Q over wild type	ΔpEC50	0.21 ± 0.11
CNc1ccccc1C(=O)O[C@H]1C[C@H](n2cnc3c(N)ncnc32)O[C@@H]1COP(=O)(O)OP(=O)(O)O	Unconventional myosin-Va (Gallus gallus, UniProt Q02440, D297C/G292C/I296C/S293C/V295G)	stopped-flow FRET		25 °C, added: MgCl2 2 mM		association rate constant	5.55e+06 ± 230000 M⁻¹ s⁻¹
Cc1nnc(Nc2ccc(O)cc2)[nH]c1=O	DNA dC->dU-editing enzyme APOBEC-3A (Homo sapiens, UniProt P31941)	binding, 1H CPMG NMR				signal attenuation	44.9 ± 7.9%
CCN(CC)C(=O)c1ccc(O)c(OC)c1	Heat shock protein HSP 90-alpha, N-terminal domain (HSP90AA1, Homo sapiens, UniProt P07900)	binding, ligand-observed NMR titration		ligand to protein ratio 707		bound ligand fraction	0.13 mol %
O=C(CSc1nc(-c2ccccc2)cc(C(F)(F)F)n1)Nc1ccccc1	SCTR	increase of tracer binding, TR-FRET	HEK293 membranes	added: Fluo-Sec 6 nM		Emax	116 ± 7.4%
CNS(=O)(=O)Nc1nccc(Cc2c(C)c3ccc(Oc4ncccc4F)cc3oc2=O)c1F	Dual specificity mitogen-activated protein kinase kinase 2 (MAP2K2, Homo sapiens, UniProt P36507)	cell-free assay, competition with immobilised ligand		1 µM		remaining binding	0.05%
CC(=O)N[C@@H]1[C@@H](O[C@@H]2O[C@H](C(=O)O)[C@@H](O[C@@H]3O[C@H](COS(=O)(=O)O)[C@@H](OS(=O)(=O)O)[C@H](O[C@@H]4O[C@H](C(=O)O)[C@@H](OS(=O)(=O)O)[C@H](OS(=O)(=O)O)[C@H]4OS(=O)(=O)O)[C@H]3NC(C)=O)[C@H](OS(=O)(=O)O)[C@H]2OS(=O)(=O)O)[C@H](OS(=O)(=O)O)[C@@H](COS(=O)(=O)O)O[C@H]1N=[N+]=[N-]	Interleukin-8 (CXCL8, Homo sapiens, UniProt P10145)	isothermal titration calorimetry		concentration not given, protein 10 µM, monomer		binding stoichiometry	0.37
CN1CCN(c2ccc3[nH]c(-c4ccc5[nH]c(-c6cccc(OCCCC(=O)NCCCN=[N+]=[N-])c6)nc5c4)nc3c2)CC1	T1, ssRNA FMR1 5' UTR CGG repeat (Homo sapiens)	protein displacement, competitor, TR-FRET				IC50	33 µM
COc1ccc(-c2cc(C(F)(F)F)nc(S(=O)(=O)CCC(=O)Nc3ccc(C)cc3)n2)cc1	Bifunctional 3'-5' exonuclease/ATP-dependent helicase WRN (WRN, Homo sapiens, UniProt Q14191)	inhibitor		concentration not given		exonuclease activity	inactive
Nc1nc2c(ncn2C2CC(O)C(COP(=O)(O)OP(=O)(O)C(Br)P(=O)(O)O)O2)c(=O)[nH]1 (mixture of isomers)	DNA polymerase beta (POLB, Homo sapiens, UniProt P06746)	nucleotide incorporation, substrate, single turnover kinetics		dG misincorporation opposite A		kpol/Kd	13 ± 5.1 M⁻¹ s⁻¹
CCCCCCCCc1ccc(Oc2ccccc2)c(O)c1	Enoyl-[acyl-carrier-protein] reductase [NADPH] FabI (Staphylococcus aureus, UniProt Q6GI75)	enzyme activity, inhibitor, progress curve kinetics, item: NADPH				Ki	0.00082 µM
Cc1cn([C@H]2C[C@H](O)[C@@H](COP(=O)(O)OP(=O)(O)C(Cl)(Cl)P(=O)(O)O)O2)c(=O)[nH]c1=O	DNA polymerase beta (POLB, Homo sapiens, UniProt P06746, I260M)	substrate, single turnover kinetics				kpol/Kd	32000 ± 15000 M⁻¹ s⁻¹
COc1ccc(-c2cc(C(F)(F)F)nc(NCc3ccc(F)cc3)n2)cc1OC	SCTR	increase of tracer binding, TR-FRET	HEK293 membranes	added: Fluo-Sec 6 nM		Emax	155 ± 11%
NCCCCC(NC(=O)OCc1ccccc1)C(=O)C=O (centres unmarked)	Serine protease 1 (PRSS1, Bos taurus, UniProt P00760)	binding		concentration not given, pH 7.2, added: Nα-benzoyl-L-arginine p-nitroanilide		bound inhibitor fraction	~94%

Excerpt of the above:
SMILES	target	test	system	setting	how to read	measurement	value
CNc1ccccc1C(=O)O[C@H]1C[C@H](n2cnc3c(N)ncnc32)O[C@@H]1COP(=O)(O)OP(=O)(O)O	Unconventional myosin-Va (Gallus gallus, UniProt Q02440, D297C/G292C/I296C/S293C/V295G)	stopped-flow FRET		25 °C, added: MgCl2 2 mM		association rate constant	5.55e+06 ± 230000 M⁻¹ s⁻¹
Nc1nc2c(ncn2C2CC(O)C(COP(=O)(O)OP(=O)(O)C(Br)P(=O)(O)O)O2)c(=O)[nH]1 (mixture of isomers)	DNA polymerase beta (POLB, Homo sapiens, UniProt P06746)	nucleotide incorporation, substrate, single turnover kinetics		dG misincorporation opposite A		kpol/Kd	13 ± 5.1 M⁻¹ s⁻¹
